# Measured values of several laboratories.
# Numbered parts are unrelated; each lists some results of a single study.

# Set 1
# Target: TAR DNA-binding protein 43, full length, His tag (TARDBP, Homo sapiens, UniProt Q13148, residues 1-414)
# Method: RNA Bind-n-Seq
# Molecule type: RNA
# Matrix: in vitro
# Concentration: 20 nM
# Notes: 6-mer, flanks averaged, single round
# Together with: 150 mM LiCl
# Relative to: input library
# Direction: higher = stronger binding
Strand,6-mer enrichment (R)
AUCCAU,0.856
GUCUGU,1.1
AACGCU,0.797
UACGUU,0.936
AUAUAG,0.93
CCCCCG,1.27
UGGGCU,1.04
GUCGGU,1.14
UGAGAC,0.929
AGUGCG,1.18
CACUUG,0.871
GUCCCU,1.07

# Set 2
# Target: Fragile X messenger ribonucleoprotein 1, C-terminal low-complexity region (Fmr1, Mus musculus, UniProt P35922)
# Method: RNA Bind-n-Seq
# Molecule type: RNA
# Matrix: in vitro
# Concentration: 200 nM
# Notes: whole 134-nt RNA, ends assumed
# Together with: 150 mM LiCl
# Relative to: input library
# Direction: higher = stronger binding
# Library: 7-deaza-guanosine replaces G
Strand,log2 enrichment
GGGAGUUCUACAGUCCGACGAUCUCAGGUCCUUAAGUACCUUCGUAUUACUUUUAGCAGGAAAAACGGCAUGUUUUGCAUCUGGUGUGCAAUGUGAAGAGUCCUUCAAAAAUGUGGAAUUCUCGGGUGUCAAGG,-0.973
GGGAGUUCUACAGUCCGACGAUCGCAGGAAGUAAAAACAAAUGGAAAUGCUUCGGAUAGUGGCAGGGGUGGGGGUUGCUAAGGAGAGGGUGGGAUGGGAGUGGGUAAAGAGUUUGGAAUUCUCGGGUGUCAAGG,1.42
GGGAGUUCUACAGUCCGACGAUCAAGUCCUGUGCUACACAUCGUAUGUACCGAAUCGGUUUUGGGUUUUGGGGUUUUGGGAAAGUAUUAUGUUACGCCGUUCGGAUCUGCACUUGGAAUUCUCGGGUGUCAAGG,-1.06
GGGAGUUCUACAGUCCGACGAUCCACAGACAACACGCACCCACACAGACACAGAGGAAAGGGGUUGGGAUGGGGACAGGGUGCACAGCAGGGCGGGGUAGGACCCCAGCCCCUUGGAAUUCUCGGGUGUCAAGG,0.487
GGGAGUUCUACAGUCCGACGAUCCACAGACAACACGCACCCACACAGACACAGAGGGAAGGGGUUGGGAUGGGGACAGGGUGCACAGCAAGGCGGGGUAGGACCCCAGCCCCUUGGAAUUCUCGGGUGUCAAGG,0.347
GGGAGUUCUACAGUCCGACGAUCUAACUUUAGAGGAGGAUCUGAUGGAUAUGGCAGUGGACGUGGAUUUGGGGAUGGCUAUAAUGGGUAUGGAGGAGGACCGGGAGGUGGCAAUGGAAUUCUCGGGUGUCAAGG,0.861
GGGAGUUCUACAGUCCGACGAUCGUCCUGUGCUACACAUCGUAUGUACCGAAUCAAACCCAAACCCCCAAAUUUUUUUAAAAAAGUAUUAUGUUACGCCGUUCGGAUCUGCACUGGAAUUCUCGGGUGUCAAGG,1.78

# Set 3
# Target: Interferon regulatory factor 3, full length, phosphomimetic (IRF3, Homo sapiens, UniProt Q14653, residues 1-427, S386D/S396D/S398D/S402D/T404D/S405D)
# Chain of UniProt Q14653 (whole entry, unmodified, looked up): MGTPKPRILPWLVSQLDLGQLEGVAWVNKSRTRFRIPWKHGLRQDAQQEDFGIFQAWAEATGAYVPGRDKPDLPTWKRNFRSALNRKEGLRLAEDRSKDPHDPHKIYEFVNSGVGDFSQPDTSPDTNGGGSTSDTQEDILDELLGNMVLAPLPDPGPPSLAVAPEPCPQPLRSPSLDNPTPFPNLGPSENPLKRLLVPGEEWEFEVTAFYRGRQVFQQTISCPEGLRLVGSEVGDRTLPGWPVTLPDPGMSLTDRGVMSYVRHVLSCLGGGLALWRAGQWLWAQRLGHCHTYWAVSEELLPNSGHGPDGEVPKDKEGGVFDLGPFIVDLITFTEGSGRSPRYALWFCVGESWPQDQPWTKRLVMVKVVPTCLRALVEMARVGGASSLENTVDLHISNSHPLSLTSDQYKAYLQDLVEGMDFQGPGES
# Method: protein-binding microarray
# Molecule type: double-stranded DNA, one strand shown
# Matrix: in vitro
# Concentration: 2540 nM top
# Notes: 60-bp whole probe
# Together with: salmon DNA 0.4 mg/ml
# Relative to: random background probes
# Direction: higher = stronger binding
# Constant ends, left off below: GCCTAGCAC … GTCTTGATTCGCTTGACGCTGCTG
Strand,fitted relative affinity [z-score]
CAACATCTGCAAGATCCACAAGTGCTA,0.093
TCATGTTTGATAATTTTACTGTGCTAG,-0.0185
TTAGGTATCCTCCTGCTTTAGTGCTAG,1.28
TTAGGTTTCGCACTGGGTTAGTGCTAG,3.18
GACGATTTCAGTATCGAAACGTGCTAG,3.01
TTATGTATCCTTCTCCTTTAGTGCTAG,7.38
TTAGGGTTCGGTTCCGGTTAGTGCTAG,3.86
TCAGCTTGGTGTCTCTGACTGTGCTAG,-0.606
ACCACTCTTGCTTTTTAGATGTGCTAG,1.51
GACGGACTGCTTCTCCTAACGTGCTAG,-0.0517
GACGGTATCCTTATCCTGACGTGCTAG,5.34
TTAGGGCTGGGACTGGGTTAGTGCTAG,-1.28
GAAGAAATTTAATAGTCACTGTGCTAG,-0.628
TTTCTTACATGCATCATAACGTGCTAG,2.17
CCCTTTCTCAACCTCCAGAGGTGCTAG,4.87
TTTAGCAGACTGAGAGGAACGTGCTAG,-0.437
GATGGTATCGGTCTCGGGACGTGCTAG,4.57

# Set 4
# Target: RING finger protein unkempt homolog, zinc fingers 1-6, SBP tag (UNK, Homo sapiens, UniProt Q9C0B0, residues 30-357)
# Chain of UniProt Q9C0B0 (30-357, looked up): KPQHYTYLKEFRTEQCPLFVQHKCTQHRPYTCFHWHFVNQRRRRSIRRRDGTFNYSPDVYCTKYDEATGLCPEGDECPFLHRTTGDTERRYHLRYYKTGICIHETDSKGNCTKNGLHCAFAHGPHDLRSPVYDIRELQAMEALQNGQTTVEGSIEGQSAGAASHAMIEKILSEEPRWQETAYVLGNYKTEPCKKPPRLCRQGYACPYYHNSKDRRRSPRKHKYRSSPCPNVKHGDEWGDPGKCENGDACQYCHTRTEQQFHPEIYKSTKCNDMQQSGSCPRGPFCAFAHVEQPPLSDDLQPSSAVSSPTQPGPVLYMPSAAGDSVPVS
# Method: RNA Bind-n-Seq
# Molecule type: RNA
# Matrix: in vitro
# Concentration: 100 nM
# Notes: RNA with constant flanks, vertebrate orthologous sites, ends assumed
# Relative to: input RNA pool
# Direction: higher = stronger binding
Strand,bound/input enrichment [ratio]
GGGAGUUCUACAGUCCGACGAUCAGUAGUUGUAAGCUUGUUUGCACAGUUCUUUUUUUCCAUUGGAAAUGGAAUUCAUUGCCUUAGGUCUUUUUAAAUAGUGUAUUAUUAUCGUUGGGGCUGGCUCUAUGCUUGAAAACCAGUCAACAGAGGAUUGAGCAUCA,3.36
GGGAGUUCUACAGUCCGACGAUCUUCAGGCACAACUGACUGGUUCACAGCAUCCUUUACAUAGUUAUCUGUCAGGUGCAGGUGUAGUUAAUUUUCAGGAAACAAGCAGGCAGUCCUCUUUAUCCUGUAGCCCAGUUGGAGAUUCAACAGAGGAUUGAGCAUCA,1.32
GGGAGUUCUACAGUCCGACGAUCAGGAGAGGGAAAAAGCUGAGCAGAUCUUUCUCCCCCCAAAUAAAGCCAAAAAGAGUUGGCUUUAGUUCUGUCUUUAAAAGCAAAGGUGGCAUUUUCUCUUGAUCGUGUGGCUAUCCUCACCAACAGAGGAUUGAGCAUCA,0.586
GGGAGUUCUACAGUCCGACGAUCAGUAGAUUUAUACGAAUACUGAAGUUACAGAGGAUAUCCAAGGUGGUGAUAAAGUGUGUGUUGGUAGUUACUAAAAGAACUUUAGCUGUUACUGCCUUGUAUUUCUAUCCCUUGUUUUAGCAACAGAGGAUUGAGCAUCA,0.438
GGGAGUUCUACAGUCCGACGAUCACCUAAAAUUAUAGCAGAAGAGCCAAGCAGUAGCAGUUUUUUUGUAAAUGUAAAAAUAAUUAGAUCCUGACUUUGUUUCCUUCUUCUAUUUUAAAAAUAAAAAAUACCUCAGUGCUAUGUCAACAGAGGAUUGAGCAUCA,0.455
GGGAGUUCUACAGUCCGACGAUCAUUUUUUAAAGUUUUUUUAAUUUAAUUUUUCCUUUUGGGGGUAAAGUUUGCUCUACCAAAUAGUGAUCGUAACAAAUUGAUCUGUUUUGGAUGUUGCUCUAGUGACAUGCAGUUAUAUAUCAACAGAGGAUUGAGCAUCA,0.629
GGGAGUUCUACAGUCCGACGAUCGUGCUGUGUAUCCAUUUGAGGGGGUUCUCCUCUGAGCUGCCAAGAAGGAAGAAGCCUACCUAGAGCCCUUACAUAUCUGAUUAUACCAUUCUGGUCUGUUUCCUGCUUUUUCUUUUCUCUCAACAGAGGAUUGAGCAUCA,0.636
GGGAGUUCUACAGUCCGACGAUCCAUGGGGACUACUCUGGGGAGCGCUGGACACUUAGCAUUGUUUGAUUUAUGACCUUGACAAUAGAUAGGCUUGUGGGGUUUUUUGUUUUUUAAUUUAAUGAUAUUAAAACUUAAUUCACUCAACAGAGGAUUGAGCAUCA,1.26
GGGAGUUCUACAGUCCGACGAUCGAAGAUGGUGGUUGUACAUUAUUUCAUUAGAAAAUAUAAAAAUUCAUUUUGUUUUGAAGCUAGGUAUUAAACUGGAAUAGCUAUUACACCCCUGAGAAUGGGGCAGUUGUGCCCUUCCCUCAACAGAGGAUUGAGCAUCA,1.46
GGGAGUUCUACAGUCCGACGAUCGCAAUGAAAAAGCAGCCCUUCUCCCAGCCCCCUUUUCACUAGGAGACACAAACAUUACAAUAGAAGAGCAAUUAAACUCAAUAAAUUUAUCUUUUCAGGAUGAUCCAGAUUCCAGUACCACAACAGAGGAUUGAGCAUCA,2.43
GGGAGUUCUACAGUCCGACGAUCUCAGUCCCCUGGACUGGGACAGAUUUUUUUUAACGUCUUGAAACUUAAAUUCUGUGCUUGUAGGAGACUGAAACCUUUUUGUCUUUUUUUUUUUAAACAAACAACCUCCACCUCCAGUGGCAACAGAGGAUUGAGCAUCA,0.493

# Set 5
# Target: Sal-like protein 4, full length isoform B (SALL4, Homo sapiens, UniProt Q9UJQ4-2, residues 1-616)
# Method: universal PBM
# Molecule type: double-stranded DNA, one strand shown
# Matrix: in vitro
# Concentration: not given
# Notes: 8-mer, flanks averaged, mean of replicates
# Direction: higher = stronger binding
# Target sequence (chain): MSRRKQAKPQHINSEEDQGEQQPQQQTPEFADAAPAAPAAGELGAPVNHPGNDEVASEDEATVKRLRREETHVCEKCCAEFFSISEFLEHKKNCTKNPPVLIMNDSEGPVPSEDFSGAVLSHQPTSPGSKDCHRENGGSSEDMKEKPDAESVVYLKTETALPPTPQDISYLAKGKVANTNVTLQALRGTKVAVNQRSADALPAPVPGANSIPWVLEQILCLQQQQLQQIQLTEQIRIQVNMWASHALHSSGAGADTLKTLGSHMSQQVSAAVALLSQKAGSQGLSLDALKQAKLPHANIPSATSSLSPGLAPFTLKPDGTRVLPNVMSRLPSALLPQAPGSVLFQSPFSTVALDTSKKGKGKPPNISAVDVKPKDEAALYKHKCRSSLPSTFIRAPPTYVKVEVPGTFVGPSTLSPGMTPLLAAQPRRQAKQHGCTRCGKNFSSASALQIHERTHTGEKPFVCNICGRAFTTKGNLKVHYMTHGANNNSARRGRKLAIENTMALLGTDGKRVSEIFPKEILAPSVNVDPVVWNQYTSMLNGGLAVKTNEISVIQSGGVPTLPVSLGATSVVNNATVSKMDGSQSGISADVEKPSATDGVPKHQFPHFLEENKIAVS
Strand,E-score
GCGAATAC,-0.0224
CGACAGCG,-0.239
CACCGATC,-0.293
CACCGTCA,-0.0181
ATGCCGAG,-0.0977
ACGAAGAT,0.0854
TATCGCAA,0.0635
GAATTCAA,0.14
CTCCTTCA,-0.00685
GCAACCCA,-0.0692
CTGGTAAC,-0.127
ATGACGAC,0.024
ATGACAAC,0.207
AACGTGAG,0.0585
AGCGCTAT,0.154
CATAGAAA,0.212
AGCGACAG,-0.108
CGTTGACC,-0.13
CCAAAGCC,-0.141
GGGGAGAC,-0.227
AAGGAAAT,0.241
CCCTGGTC,-0.322
GTGGAAAA,0.141
CGGATCAG,-0.278
CTTATACC,0.136

# Single results of other studies
Substance,target,test,system,conditions,how to read,endpoint,value
"PhoQ, residues 284 288 289 292 302 303 SSLVEF","PhoP, residues 12 14 15 18 19 TTLRV (Escherichia coli, UniProt P23836)","Sort-seq, item: YFP reporter",E. coli,"PhoQ-PhoP variant library, together with: 10 µM Mg2+","relative to: high Mg2+ state, higher = stronger signaling",fold induction,0.435

# Repeated from above (set 5):
Strand,E-score
CACCGTCA,-0.0181
ATGCCGAG,-0.0977
ACGAAGAT,0.0854
TATCGCAA,0.0635
GAATTCAA,0.14
CTCCTTCA,-0.00685
GCAACCCA,-0.0692
CTGGTAAC,-0.127
ATGACGAC,0.024
ATGACAAC,0.207
AACGTGAG,0.0585
AGCGCTAT,0.154
